Experimental data from different studies.
Compare with care: the assays were run in different laboratories. ± gives the spread as reported.

Cc1cc(/C=C/C#N)cc(C)c1Oc1nc(NC2CCN(Cc3ccc(S(C)(=O)=O)cc3)CC2)nc2ncccc12 — result for “concentration at resistance emergence”: 5.3 µM (HIV-1; in vitro resistance selection; MT4, IIIB; 39 passages).
The IC50 of CCN(Cc1cccc(S(=O)(=O)O)c1)c1ccc(C(=C2C=CC(=[N+](CC)Cc3cccc(S(=O)(=O)[O-])c3)C=C2)c2ccccc2)cc1 is reported as greater than 40000 nM (HIV-1; pseudovirus infection; SF162 K35A).
For Cc1cc(C)cc(S(=O)(=O)c2c(C(N)=O)[nH]c3ccc(Cl)cc23)c1, the EC50 was 39 ± 2.8 nM (HIV-1; viral replication; MT-4, Y181C mutant).
Cc1nc([C@@H](NC(=O)c2ccc(-c3ccc(Cl)cc3)[nH]2)[C@@H]2CCCCN2)sc1CO gave an IC50 of 7900 ± 600 nM (HIV-1; viral replication; MT-2, IIIB).
The inhibition of O=C(O)C[C@@H]1NC(=O)[C@H](Cc2ccc(OS(=O)(=O)O)cc2)NC(=O)c2cccc(c2)CNC(=O)[C@H](Cc2ccc(OS(=O)(=O)O)cc2)NC(=O)[C@H](CC(=O)O)NC1=O is reported as greater than 50% (HIV-1; viral entry; NP2.CD4.CCR5, TA1 engineered Env pseudotype; 100 µM).
CCCCCCCCCCCCCCCC(=O)N[C@@H](CCC(=O)NCCOCCOCCC(=O)NCCOCCOCCC(=O)NCCCC[C@H](NC(=O)[C@H](CC(=O)O)NC(=O)[C@H](CC(C)C)NC(=O)[C@H](Cc1ccc(O)cc1)NC(=O)[C@H](CCCCN)NC(=O)[C@H](CO)NC(=O)[C@H](Cc1ccc(O)cc1)NC(=O)[C@H](CC(=O)O)NC(=O)[C@H](CO)NC(=O)[C@@H](NC(=O)[C@H](Cc1ccccc1)NC(=O)[C@@H](NC(=O)CNC(=O)[C@H](CCC(N)=O)NC(=O)[C@@H](CO)NC(=O)[C@@H](N)Cc1c[nH]cn1)[C@@H](C)O)[C@@H](C)O)C(=O)N[C@@H](CCCNC(=N)N)C(=O)N[C@@H](CCCNC(=N)N)C(=O)N[C@@H](C)C(=O)N[C@@H](CCC(N)=O)C(=O)N[C@@H](CC(=O)O)C(=O)N[C@@H](Cc1ccccc1)C(=O)N[C@H](C(=O)N[C@@H](CCC(N)=O)C(=O)N[C@@H](Cc1c[nH]c2ccccc12)C(=O)N[C@@H](CC(C)C)C(=O)N[C@@H](CC(C)C)C(=O)N[C@@H](CC(N)=O)C(=O)N[C@H](C(=O)NCC(=O)NCC(=O)N1CCC[C@H]1C(=O)N[C@@H](CO)C(=O)N[C@@H](CO)C(=O)NCC(=O)N[C@@H](C)C(=O)N1CCC[C@H]1C(=O)N1CCC[C@H]1C(=O)N1CCC[C@H]1C(=O)N[C@@H](CO)C(N)=O)[C@@H](C)O)C(C)C)C(=O)O gave a Tmax of 1.67 ± 0.516 h (rhesus monkey; subcutaneous, 5 µg/kg, single dose).
The EC50 of CC(C)n1ccn2cc(C(=O)NCc3ccc(F)cc3F)c(=O)c(O)c2c1=O is reported as 56.1 ± 6.9 nM (HIV-1; viral replication, single-round vector infection; IN E138K/G140C/Q148R).
The EC50 of Cc1cc(/C=C/C#N)cc(C)c1Nc1nc(Nc2ccc(C#N)cc2)ncc1N is reported as 0.4 ± 0.04 nM (HIV-1; viral replication, single-round infection; RT mutant M184V).
With CC(C)N1CCn2cc(C(=O)NCc3ccc(F)cc3F)c(=O)c(O)c2C1=O the EC50 was 54.2 ± 11.9 nM (HIV-1; viral replication, single-round vector infection; IN E138K/G140C/Q148R).
COc1ccnc(Nc2ccc(C#N)cc2OCC=C(C)C)n1: antiviral activity “inactive” (HIV-1; MTT; MT-2, RT Y181C mutant; concentration not given).
Cc1cc(/C=C/C#N)cc(C)c1-n1cnc2cnc(Nc3ccc(C#N)cc3)nc21 has an EC50 of 23.1 ± 4.5 nM (HIV-1; viral replication, single-round infection; RT mutant Y181I).
Cc1cc(C)cc(S(=O)(=O)c2c(C(=O)NC3CC4(C3)CN(Cc3n[nH]c(=O)[nH]3)C4)[nH]c3ccc(Cl)cc23)c1 gave an EC50 of 40 ± 20 nM (HIV-1; viral replication; MT-4, E138K mutant).
The IC50 of COc1ccc2c(c1)OCCCC=CCCCCN(CC(O)C(Cc1ccccc1)NC(=O)OC1COC3OCCC13)S2(=O)=O (mixture of isomers) is reported as 28 ± 4 nM (HIV-1; viral replication; PHA-stimulated PBMCs, HIV-1MDR/G X4 multidrug-resistant).

A few entries again:
The IC50 of CCN(Cc1cccc(S(=O)(=O)O)c1)c1ccc(C(=C2C=CC(=[N+](CC)Cc3cccc(S(=O)(=O)[O-])c3)C=C2)c2ccccc2)cc1 is reported as greater than 40000 nM (HIV-1; pseudovirus infection; SF162 K35A).
Cc1cc(/C=C/C#N)cc(C)c1Oc1nc(NC2CCN(Cc3ccc(S(C)(=O)=O)cc3)CC2)nc2ncccc12 — result for “concentration at resistance emergence”: 5.3 µM (HIV-1; in vitro resistance selection; MT4, IIIB; 39 passages).
